Measured values of several laboratories.
± gives the spread as reported.

Molecule = CS/C(S)=N/CCCC[S+](C)[O-] (racemic); test = RT-PCR, item: Arnt; system = rat, colon; setting = oral gavage, 200 mg/kg, 96 h, dosed for four days; how to read = reference: vehicle; measurement = mRNA fold change; value = 2.52
Molecule = AGEDPHGYALPGQAA; test = ELISA or Luminex; system = peptide, mouse peritoneal macrophages, C57BL/6 mouse; setting = optimal dose within 0.1 pM to 100 nM, 1 h pretreatment, 15 h stimulation, together with: LPS 100 ng/mL + IFN-γ 20 ng/mL; how to read = reference: LPS/IFN-γ stimulated control; measurement = inhibition of TNF-α release; value = 0%
Molecule = CC(=O)c1sc(NN=C2c3ccccc3-c3nc4cc(F)ccc4nc32)nc1C; system = mice with STZ-induced diabetes; setting = oral, 25 mg/kg, 144 h, day 6; measurement = blood glucose; value = 238 ± 4.8 mg/dL
Molecule = CC(C)C[C@H](NC(=O)[C@H](CO)NC(=O)[C@H](CCCNC(=N)N)NC(=O)[C@H](CC(=O)O)NC(=O)[C@H](CCC(=O)O)NC(=O)[C@H](C)NC(=O)[C@@H]1CCCN1C(=O)[C@H](C)NC(=O)[C@H](CCC(=O)O)NC(=O)[C@@H]1CCCN1C(=O)[C@@H]1CCCN1)C(N)=O; test = HPLC-EC; system = F344 rat, normal, striatum; setting = intranasal, 300 µg, 5 days/week for 3 weeks; measurement = HVA level; value = 843 ± 63 ng/g
Molecule = CC(C)[C@H](NS(=O)(=O)c1ccc(-c2ccc(Br)cc2)cc1)C(=O)O; system = rat, isolated perfused stunned heart; setting = dose not given, 20-25 min ischaemia, 30 min reperfusion; measurement = ventricular weight; value = 93.7 ± 1.3 mg
Molecule = CCCCCCOC(=O)N=C(N)c1ccc(NCc2nc3cc(C(=O)N(CCC(=O)OCC)c4ccccn4)ccc3n2C)cc1; system = human subjects, plasma; setting = dose not given, together with: enoxaparin, dosed 24 h earlier; how to read = reference: dabigatran alone; measurement = PiCT increase; value = ~15%
Molecule = COc1c(C)c(C)c2c(c1C)CCC(C)(C(=O)NN=C1C(=O)Nc3ccc(Br)cc31)O2 (stereo not drawn); test = seizure protection; system = male CF-1 mice; setting = intraperitoneal, 0.5 h, together with: maximal electroshock; measurement = minimal effective dose; value = > 300 mg/kg
Molecule = COc1ccnc(C[S+]([O-])c2nc3ccc(OC(F)F)cc3[nH]2)c1OC (stereo not drawn); system = human poor metabolizer; setting = 40 mg/day, day 6, 5 days dosing; measurement = intragastric pH; value = 5.25 ± 0.35
Molecule = Neuropeptide Y; test = perfusion pressure; system = cirrhotic rat, isolated perfused liver; setting = 0.1 nM to 5 µM, together with: methoxamine 100 µM; measurement = hepatic vascular resistance; value = increased
Molecule = CCN(O)N=Nc1ccc(S(=O)(=O)Nc2cc(C)on2)cc1; test = paw oedema; system = rat, carrageenan oedema; setting = oral, 100 mg/kg, 2 h after carrageenan; how to read = reference: vehicle; measurement = inhibition; value = 41.1%
Molecule = Cc1c(C)c2c(c(C)c1OCc1ccccc1)CCC(C)(C(=O)NN=C1C(=O)Nc3ccc(Br)cc31)O2 (stereo not drawn); test = seizure protection; system = male CF-1 mice; setting = intraperitoneal, 4 h, together with: maximal electroshock; measurement = minimal effective dose; value = > 300 mg/kg
Molecule = CCc1c2ccccc2c(CC)c2c1ccc1ccccc12; test = adrenal haemorrhage prevention; system = rat; setting = oral, together with: 7,12-DMBA 5 mg i.v.; measurement = minimal protective dose; value = 1 mg
Molecule = CCOC(=O)C=C1SC(NN=C2c3ccccc3-c3nc4cc(F)ccc4nc32)=NC1=O; system = mice with STZ-induced diabetes; setting = oral, 25 mg/kg, 216 h, day 9; measurement = blood glucose; value = 294 ± 60.9 mg/dL
Molecule = COc1ccc2c(c1)c(CC(=O)O)c(C)n2C(=O)c1ccc(Cl)cc1; test = multiplex bead immunoassay, item: IL-6; system = CD-1 mice, serum; setting = ip, 20 mg/kg, three-injection regimen, together with: LPS 3 mg/kg; measurement = cytokine level; value = 1910 ± 1110 pg/mL
Molecule = CC[C@H](C)[C@@H]1NC(=O)[C@H](CCCNC(=N)N)NC(=O)[C@H](CC(=O)O)NC(=O)[C@H](CC(C)C)NC(=O)[C@H](CCCCN)NC(=O)[C@H](CC(C)C)NC(=O)CNC(=O)[C@H](Cc2ccccc2)NC(=O)[C@@H](NC(=O)CNC(=O)[C@H](CCCCN)NC(=O)[C@H](CO)NC(=O)[C@H](CC(C)C)NC(=O)CNC(=O)[C@H](CCCCN)NC(=O)[C@H](CCCCN)NC(=O)[C@H](CC(N)=O)NC(=O)[C@H](C)NC(=O)CNC(=O)[C@H](CCCCN)NC(=O)[C@H](Cc2ccc(O)cc2)NC(=O)[C@H](CCCCN)NC(=O)[C@H](CCCNC(=N)N)NC(=O)[C@H](C)NC(=O)[C@H](CC(N)=O)NC(=O)[C@@H]2CCCN2C(=O)[C@H](Cc2c[nH]cn2)NC(=O)[C@H](CCC(=O)O)NC(=O)[C@H](CCC(N)=O)NC(=O)CNC(=O)[C@@H]2CCCN2)CSSC[C@@H](C(=O)O)NC(=O)CNC(=O)[C@H](CC(C)C)NC(=O)CNC(=O)[C@H](CO)NC(=O)[C@H](CCSC)NC(=O)[C@H](CO)NC(=O)CNC1=O; test = item: collagen type X marker; system = human patients with achondroplasia, serum; setting = day 10 to 183, sigmoid Emax vs Cmax; measurement = Emax; value = 3690 pg/mL
Molecule = NCCCC[C@@H]1NC(=O)[C@@H](Cc2c[nH]c3ccccc23)NC(=O)[C@H](c2ccccc2)NC(=O)[C@@H]2C[C@@H](OC(=O)NCCN)CN2C(=O)[C@H](Cc2ccccc2)NC(=O)[C@H](Cc2ccc(OCc3ccccc3)cc2)NC1=O; test = GHRH-stimulated GH secretion; system = healthy human volunteers; setting = subcutaneous, 300 µg, together with: GHRH 1 µg/kg; how to read = reference: pre-dose baseline; measurement = GH AUC(0-2h) change; value = -86.7%
Molecule = Cc1c(C)c2c(c(C)c1O)CCC(C)(C(=O)NN=C1C(=O)Nc3cc(Cl)ccc31)O2 (stereo not drawn); test = seizure protection; system = male CF-1 mice; setting = intraperitoneal, 0.5 h, together with: pentylenetetrazole 60 mg/kg subcutaneous; measurement = minimal effective dose; value = 30 mg/kg
Molecule = SIIVFEKL; test = flow cytometry, item: CD44hi CD8+ T cells; system = peptide, OT-I CD8+ T cells, mouse; setting = primed 5 days, restimulated 100 ng/mL OVA257, together with: no TGF-β1; measurement = single cytokine producers; value = 5.95%
Molecule = Nc1cc2c3ccccc3ccc2c2ccccc12; test = adrenal haemorrhage prevention; system = rat; setting = oral, together with: 7,12-DMBA 5 mg i.v.; measurement = minimal protective dose; value = 1 mg
Molecule = NNC1=NC(=O)C(=C2c3ccccc3-c3nc4cc(F)ccc4nc32)S1; system = mice with STZ-induced diabetes; setting = oral, 25 mg/kg, 216 h, day 9; measurement = blood glucose; value = 305 ± 16.4 mg/dL
Molecule = SIYNFEKL; test = flow cytometry, item: CD44hi CD8+ T cells; system = peptide, OT-I CD8+ T cells, mouse; setting = primed 5 days, restimulated 100 ng/mL OVA257, together with: no TGF-β1; measurement = single cytokine producers; value = 19.7%
Molecule = insulin; test = PET imaging; system = CD IGS rat, ipsilateral lateral gastrocnemius; setting = intravenous, 3.39-48.48 IU/kg, 20 to 60 min; measurement = 18F-FDG SUV slope; value = 0.0061 ± 0.0019
Molecule = CN(O)N=Nc1ccc(S(=O)(=O)Nc2nccs2)cc1; test = paw oedema; system = rat, carrageenan oedema; setting = oral, 100 mg/kg, 4 h after carrageenan; how to read = reference: vehicle; measurement = inhibition; value = 60.6%
Molecule = PHGYFLPGQFA; test = ELISA or Luminex; system = peptide, mouse peritoneal macrophages, C57BL/6 mouse; setting = optimal dose within 0.1 pM to 100 nM, 1 h pretreatment, 15 h stimulation, together with: LPS 100 ng/mL + IFN-γ 20 ng/mL; how to read = reference: LPS/IFN-γ stimulated control; measurement = inhibition of RANTES release; value = 0%
Molecule = Cc1c(C)c2c(c(C)c1O)CCC(C)(C(=O)NN=C1C(=O)N(C)c3ccccc31)O2 (stereo not drawn); test = seizure protection; system = male CF-1 mice; setting = intraperitoneal, 4 h, together with: maximal electroshock; measurement = minimal effective dose; value = 30 mg/kg
Molecule = insulin glargine; test = euglycaemic glucose clamp; system = type 2 diabetic patients; setting = subcutaneous, 0.4 U/kg, 0 to 32 h, after 1 week bedtime dosing; measurement = glucose infusion rate AUC; value = 1540 ± 688 mg/kg
Molecule = O=C1NC(=O)C(c2ccccc2)(c2ccccc2)N1; test = seizure protection; system = male CF-1 mice; setting = intraperitoneal, 4 h, together with: maximal electroshock; measurement = minimal effective dose; value = 30 mg/kg
Molecule = CC(=O)O[C@H]1C(=O)[C@@]2(C)[C@H]([C@H](OC(=O)c3ccccc3)[C@]3(O)C[C@H](OC(=O)[C@H](O)[C@@H](NC(=O)c4ccccc4)c4ccccc4)C(C)=C1C3(C)C)[C@]1(OC(C)=O)CO[C@@H]1C[C@@H]2O; system = sample A patient-derived NSCLC xenograft, Mus musculus; setting = intravenous, 10 mg/kg every 4 days, 96 h; how to read = reference: vehicle; measurement = tumour growth inhibition; value = 60%
Molecule = Polymyxin B; system = human whole blood; setting = 500 ng/mL, 4 h, 37 °C, together with: E. coli LPS 0.5 ng/mL; how to read = reference: LPS without compound; measurement = IL-1β release; value = 10.2 ± 5.5%
Molecule = Cc1c(C)c2c(c(C)c1OCc1ccccc1)CCC(C)(C(=O)NN=C1C(=O)Nc3ccc(Cl)cc31)O2 (stereo not drawn); test = seizure protection; system = male CF-1 mice; setting = intraperitoneal, 4 h, together with: maximal electroshock; measurement = minimal effective dose; value = 100 mg/kg
Molecule = COc1ccc2c(c1)CC[C@H](CN(C)CC(=O)O)[C@@H]2c1ccccc1; system = rat, prefrontal cortex microdialysate; setting = oral gavage, 5 mg/kg/day, 2 weeks; measurement = basal dopamine level; value = 1.86 ± 1.54 pg/10 µL
Molecule = Cc1cccc(N(O)N=Nc2ccc(S(=O)(=O)Nc3cc(C)on3)cc2)c1; test = paw oedema; system = rat, carrageenan oedema; setting = oral, 100 mg/kg, 2 h after carrageenan; how to read = reference: vehicle; measurement = inhibition; value = 45.1%
Molecule = CCN(c1nc(N)c(C(=O)NC(=N)N)nc1Cl)C(C)C; system = mice, MCAO focal ischemia; setting = intracerebroventricular, 1 µL, 2 mM, 24 h, 30 min before 60 min MCAO; measurement = infarct volume; value = 29.4%
Molecule = Cc1cccc2cc3c(cc12)c(C)cc1ccccc13; test = adrenal haemorrhage prevention; system = rat; setting = oral, together with: 7,12-DMBA 5 mg i.v.; measurement = minimal protective dose; value = 1 mg
Molecule = CCOC(=O)c1sc(NN=C2c3ccccc3-c3nc4cc(F)ccc4nc32)nc1C; system = mice with STZ-induced diabetes; setting = oral, 25 mg/kg, 144 h, day 6; measurement = blood glucose; value = 301 ± 34.7 mg/dL
Molecule = Cc1cc(C(=O)/C(=C\c2ccc(Cl)cc2)c2ccc(Cl)cc2)c(C(=O)N2CCCCC2)c(=O)[nH]1; test = cell proliferation, MTT; system = 35404 melanoma brain metastasis, human patient-derived; setting = 72 h, tested up to 10 µM; measurement = IC50; value = > 10 µM
Molecule = Cc1cc(-c2nnc(N)nc2-c2ccc(F)cc2)cc(Cl)n1; system = patients with mCRPC, low blood adenosine signature; setting = dose not given, alone or with durvalumab; measurement = median progression-free survival; value = 8.7 weeks
Molecule = CC[C@H](C)[C@H](NC(=O)[C@H](CCC(=O)O)NC(=O)[C@H](CO)NC(=O)[C@@H](NC(=O)[C@@H](N)CO)C(C)C)C(=O)N[C@@H](CCC(N)=O)C(=O)N[C@@H](CC(C)C)C(=O)N[C@@H](CCSC)C(=O)N[C@@H](Cc1c[nH]cn1)C(=O)N[C@@H](CC(N)=O)C(=O)N[C@@H](CC(C)C)C(=O)NCC(=O)N[C@@H](CCCCN)C(=O)N[C@@H](Cc1c[nH]cn1)C(=O)N[C@@H](CC(C)C)C(=O)N[C@@H](CC(N)=O)C(=O)N[C@@H](CO)C(=O)N[C@@H](CCSC)C(=O)N[C@@H](CCC(=O)O)C(=O)N[C@@H](CCCNC(=N)N)C(=O)N[C@H](C(=O)N[C@@H](CCC(=O)O)C(=O)N[C@@H](Cc1c[nH]c2ccccc12)C(=O)N[C@@H](CC(C)C)C(=O)N[C@@H](CCCNC(=N)N)C(=O)N[C@@H](CCCCN)C(=O)N[C@@H](CCCCN)C(=O)N[C@@H](CC(C)C)C(=O)N[C@@H](CCC(N)=O)C(=O)N[C@@H](CC(=O)O)C(=O)N[C@H](C(=O)N[C@@H](Cc1c[nH]cn1)C(=O)N[C@@H](CC(N)=O)C(=O)N[C@@H](Cc1ccccc1)C(=O)O)C(C)C)C(C)C; test = item: endogenous PTH(1-84); system = human patients; setting = dose not given, 12 months; measurement = patients with PTH(1-84) below quantitation; value = 91%
Molecule = Cc1cc(C)c(/C=C2\C(=O)Nc3ccccc32)[nH]1; test = MRI; system = human; setting = dose not given, 3.9 months; measurement = tumour volume; value = 76 cm³

Repeated from above:
Molecule = COc1c(C)c(C)c2c(c1C)CCC(C)(C(=O)NN=C1C(=O)Nc3ccc(Br)cc31)O2 (stereo not drawn); test = seizure protection; system = male CF-1 mice; setting = intraperitoneal, 0.5 h, together with: maximal electroshock; measurement = minimal effective dose; value = > 300 mg/kg
Molecule = COc1ccnc(C[S+]([O-])c2nc3ccc(OC(F)F)cc3[nH]2)c1OC (stereo not drawn); system = human poor metabolizer; setting = 40 mg/day, day 6, 5 days dosing; measurement = intragastric pH; value = 5.25 ± 0.35
Molecule = Neuropeptide Y; test = perfusion pressure; system = cirrhotic rat, isolated perfused liver; setting = 0.1 nM to 5 µM, together with: methoxamine 100 µM; measurement = hepatic vascular resistance; value = increased
Molecule = CCN(O)N=Nc1ccc(S(=O)(=O)Nc2cc(C)on2)cc1; test = paw oedema; system = rat, carrageenan oedema; setting = oral, 100 mg/kg, 2 h after carrageenan; how to read = reference: vehicle; measurement = inhibition; value = 41.1%
Molecule = Cc1c(C)c2c(c(C)c1OCc1ccccc1)CCC(C)(C(=O)NN=C1C(=O)Nc3ccc(Br)cc31)O2 (stereo not drawn); test = seizure protection; system = male CF-1 mice; setting = intraperitoneal, 4 h, together with: maximal electroshock; measurement = minimal effective dose; value = > 300 mg/kg
Molecule = CCc1c2ccccc2c(CC)c2c1ccc1ccccc12; test = adrenal haemorrhage prevention; system = rat; setting = oral, together with: 7,12-DMBA 5 mg i.v.; measurement = minimal protective dose; value = 1 mg
